Results from different studies.
Lines come from different studies, so protocols differ. “And” joins repeats or separate records; there may be more than shown. Numbers after ± are the reported error.

COc1cc(/C=C/C(=O)O)ccc1O gave an IL-1β level of 9 ± 0.7 fold change (coculture, Caco-2, THP-1; ELISA; 500 ng/mL, 8 h, together with: LPS, IFNγ, ATP; relative to: untreated control).
The inhibition of CC(C)c1ccc(C(=O)NC(=N)N)cc1S(C)(=O)=O is reported as -28.8% (THP-1; pyroptotic LDH release; 2 µM, 40 min, together with: LPS then nigericin).
COc1ccc(NC(=S)N/N=C/c2cccc3cc4ccccc4nc23)cc1 — result for “G1 phase cells”: 58.1 ± 1.9% (HeLa; PI flow cytometry; IC12.5, 48 h).
CN(C)c1ccc(C(=C2C=CC(=[N+](C)C)C=C2)c2ccc(N(C)C)cc2)cc1 — result for “MyBP-C level change”: 13.9 SD (human iPSC cardiomyocytes; plate-normalised; concentration not given, hit retest; relative to: vehicle controls, SDs below control).
CC(=O)Nc1cccc(-n2c(=O)n(C3CC3)c(=O)c3c(Nc4ccc(I)cc4F)n(C)c(=O)c(C)c32)c1 gave a fractional effect of 0.719 and 0.698 (LoVo (KRAS G13D); cell viability, resazurin; 100.00 nM, 72 h; relative to: DMSO).
With COc1cc2ccc(=O)oc2cc1OC the inhibition was -6.53% (THP-1; pyroptotic LDH release; 2 µM, 40 min, together with: LPS then nigericin).
For Cc1cc(Nc2ncc(Cl)c(Nc3ccccc3S(=O)(=O)C(C)C)n2)c(OC(C)C)cc1C1CCNCC1, “log2 fold change” read -4.21 (CLB-BAR; phosphoproteomics LC-MS/MS, measured: GAB2 phosphorylation; 200 nM, 60 min; relative to: untreated).
The inhibition of Nc1nc(-n2cc(C(=O)O)c(=O)c3cc(F)c(N4CC(O)C4)c(Cl)c32)c(F)cc1F is reported as -5.22% (THP-1; pyroptotic LDH release; 2 µM, 40 min, together with: LPS then nigericin).
The mRNA level of CC(C)(C)NC(=O)c1cncn1C1CCN(c2ccc(-c3nnc(C(F)(F)F)o3)cn2)CC1 is reported as 2.62 (HDMEC; qPCR, measured: L-GILZ; concentration not given, unit not given; relative to: DMSO).
Under “lowest effective concentration”, Cn1ncc2c(NC(P(=O)(O)O)P(=O)(O)O)nc(-c3cccc(C(=O)Nc4ccc(C(F)(F)F)cc4)c3)nc21 is recorded as at most 100 nM (MIA PaCa-2; Rap1A prenylation, inhibitor, Western blot).
C[C@H](NC(=O)C(=O)Nc1ccccc1C(C)(C)C)C(=O)N[C@@H](CC(=O)O)C(=O)COc1c(F)c(F)cc(F)c1F gave an LDH release of 25.4% and 17.5% and 19.4% (THP-1 wild type, LPS-primed; inhibitor; 25 µM, 2 h, together with: nigericin 6.25 µM).
O=C(c1cc(Cc2n[nH]c(=O)c3ccccc23)ccc1F)N1CCN(C(=O)C2CC2)CC1 has a colony survival of 18.6% (MDA-MB-436 BRCA1-mutant; colony formation; 40 nM; relative to: vehicle (DMSO)).
The IL-1β level of O=C(O)c1cc(O)c(O)c(O)c1 is reported as 8.9 ± 1.3 fold change (coculture, Caco-2, THP-1; ELISA; 100 ng/mL, 8 h, together with: LPS, IFNγ, ATP; relative to: untreated control).
With COc1cnc2cccc(N3CCc4c(cc(Cn5ccnc5C)cc4-c4cn(C)nc4C(F)(F)F)C3=O)c2c1 the EC50 was over 30000 nM (NCI-H322; cell growth, inhibitor; 120 h).
C=CC1=C(C)c2cc3[n-]c(cc4nc(cc5[n-]c(cc1n2)c(C)c5C=C)C(C)=C4CCC(=O)O)c(CCC(=O)O)c3C.[Zn+2] has a fold change of 2.05 (SH-SY5Y; RNA-seq, measured: PTX3 mRNA; 5 µM, 5 h; relative to: untreated cells).
The mRNA level of COc1cc(/C=C/C(=O)N2CCC=CC2=O)cc(OC)c1OC is reported as 31.8 ± 2.3% (MDA-MB-468; quantitative RT-PCR, measured: Bcl-xL; 30 µM, 8 h; relative to: untreated).
For CCc1c(-c2ccccc2)c(-c2ccccc2)nn1-c1ccccc1-c1cccc(OCC(=O)O)c1, the mRNA level was 0.171 and 0.0825 and 0.155 (mouse osteoclasts; RT-qPCR, measured: Lilrb4a; 1 µM, unit not given, together with: M-CSF plus RANKL; relative to: bone marrow macrophages).
The protein level of CC/C(=N\NC(=O)NCc1cccc(O)c1)c1ccc(O)c(C)c1O is reported as 0.87 ± 0.34 (SK-OV-3; Western blot, measured: LATS; 10 µM, 6 h, 2D culture, unit not given; relative to: β-actin).
Cn1c(C#N)ccc1-c1ccc2c(c1)C(C)(C)OC(=S)N2 gave an EC50 of 1120 nM (HEK293T ATF4-FLuc reporter; ATF4 reporter gene, activator, luciferase reporter).
CCn1cc(-c2cc(Cn3ccoc3=N)cc3c2CCN([C@@H](C)c2cc(OC)ccn2)C3=O)c(C(F)(F)F)n1 gave an EC50 of over 30000 nM (HCC1438; cell growth; 120 h).
NC(=O)[C@@H]1CC[C@@H]2CN1C(=O)N2OS(=O)(=O)O has an inhibition of 3.23% (THP-1; pyroptotic LDH release; 2 µM, 40 min, together with: LPS then nigericin).
O=C(Nc1nnc2n3c(Cc4ccccc4)n[nH]c3nc(-c3ccc(Cl)cc3)c1-2)c1ccccc1 gave a cell growth of 97.2% (RXF 393; SRB; 10 µM, NCI60 single-dose screen; relative to: untreated).
CCCCN1CCN(c2ccc3[nH]c(-c4ccc5[nH]c(-c6ccc(OCC)c(OCC)c6)nc5c4)nc3c2)CC1 has a growth percent of 51.6% (SF-268; SRB; 10 µM, 48 h).
For c1ccc2[nH]ccc2c1, “mRNA level, LS mean” read 33.1 counts per million (HCT-8; RNA-seq, measured: KLHL24; concentration not given).
COc1ccc(-n2nc(C(C)=O)s/c2=N\N=C(/C)c2ccc(NC(=O)c3ccc(C)cc3)cc2)cc1 has a viability of 3.06% (MCF7; 5 µM).
C[C@H]1[C@H](C)CC[C@]2(C)CC[C@]3(C)C(=CC(=O)[C@@H]4[C@@]5(C)CC[C@@H](O)[C@](C)(C(=O)NCc6cn(-c7cccc(Br)c7)nn6)[C@@H]5CC[C@]43C)[C@H]12 — result for “CD8- T cells”: 40% (human PBMCs, ConA-activated; flow cytometry; 5 µM, 24 h; relative to: T cells).
For CCn1cc(-c2cc(Cn3ccnc3)cc3c2CCN([C@H](c2cc(OC)ccn2)C2CC2)C3=O)c(C(F)(F)F)n1, the EC50 was over 30000 nM (HCC1438; cell growth; 120 h).
With CCOC(=O)c1nn(-c2ccccc2)c(C#N)c1NC(=O)c1nn(CC)cc1Cl the inhibition was under 0.5% (human monocytes; phagocytosis of anti-D RBCs; 5 µM, lab-synthesized sample).
Cc1ncsc1CCO has an inhibition of -3.08% (THP-1; pyroptotic LDH release; 2 µM, 40 min, together with: LPS then nigericin).
For Clc1nc(NCc2ccco2)c2[nH]cnc2n1, the ΔPSI was 0.248 (FD iPSC-derived cardiomyocytes; alternative splicing, RNA-seq, measured: C12orf29 exon chr12:88040147-88040265; unit not given; relative to: DMSO minus compound).
Cn1cc(-c2ccc(-c3cncc(Cl)c3N3CCC4(CCNC4=O)CC3)cc2)cn1: “fold change in expression” 2.74 (COLO 205; microarray, measured: NRP1; concentration not given, 6 h, gene set Neuropilin-1; relative to: untreated cells).
O=C(O)CCc1cccc(O)c1 has a kynurenine level of 164 ± 15.2 % change (Caco-2/THP-1 co-culture; concentration not given, together with: LPS 50 ng/mL).
CC(C)NC(=O)COc1cccc(-c2nc(Nc3ccc4[nH]ncc4c3)c3ccccc3n2)c1 has an EC50 of 1580 nM (HEK293T ATF4-FLuc reporter; ATF4 reporter gene, activator, luciferase reporter).
Cn1c(Nc2nc3ccc(C(F)(F)F)cc3s2)nc2cc(C(=O)NCCOCCO)ccc21 has a fold change of 4.45 (SH-SY5Y; RNA-seq, measured: FOSL1 mRNA; 5 µM, 5 h; relative to: untreated cells).
COc1cc(-c2oc3cc(O)cc(O)c3c(=O)c2O)ccc1O — result for “transepithelial electrical resistance”: 98.3 ± 3.1% (Caco-2/THP-1 co-culture; TEER; concentration not given, together with: LPS 250 ng/mL; relative to: control).
The viability of Nc1cccc2c1CN(C1CCC(=O)NC1=O)C2=O (centres unmarked) is reported as 40% (bone marrow CD138+ myeloma cells; XTT; 1.4 µM, mean of three patients).
For O=S(=O)(c1ccccc1)N(CC(F)(F)F)c1ccc(C(O)(C(F)(F)F)C(F)(F)F)cc1, the EC50 was 4820 nM (HEK293T ATF4-FLuc reporter; ATF4 reporter gene, activator, luciferase reporter).
With CCOC(=O)CCC(=O)O[C@H]1[C@H](O[C@@H]2[C@@H](C)[C@H](O[C@H]3C[C@@](C)(OC)[C@@H](O)[C@H](C)O3)[C@@H](C)C(=O)O[C@H](CC)[C@@](C)(O)[C@H](O)[C@@H](C)C(=O)[C@H](C)C[C@@]2(C)O)O[C@H](C)C[C@@H]1N(C)C the inhibition was -4.39% (THP-1; pyroptotic LDH release; 2 µM, 40 min, together with: LPS then nigericin).
CCN1CCN(Cc2ccc(NC(=O)c3ccc(C)c(-c4ccc5nc(NC(=O)C6CC6)cn5c4)c3)cc2C(F)(F)F)CC1: phosphorylation “inhibited” (MUTZ5 cells; Western blot, measured: JAK2, STAT5, STAT3; concentration not given).
CCCN1CCN(c2ccc3nc(-c4ccc5nc(-c6cc(OC)ccc6OC)[nH]c5c4)[nH]c3c2)CC1 has a growth percent of 106% (OVCAR-8; SRB; 10 µM, 48 h).
With O=C(/C=C/C=C/C=C/C1CCCCC1)NC1=C[C@@](O)(/C=C/C=C/C=C/C(=O)NC2=C(O)CCC2=O)[C@@H]2O[C@@H]2C1=O the GI50 was 21000 nM (HuH-6; cell growth, CellTiter-Glo; 78 h).
Cc1nn(-c2nc3c(F)cc(F)cc3s2)c(O)c1C(c1ccc(C(F)(F)F)cc1)c1c(C)nn(-c2nc3c(F)cc(F)cc3s2)c1O: “phospho-TBK1 to TBK1 ratio” 0.791 and 1.16 and 1.02 (THP1-Dual; western blot; 20 µM, together with: poly(I:C); relative to: DMSO).
COCCN(C)CCOc1ccc2[nH]c(-c3cc4ccccc4[nH]c3=O)cc2c1 has an EC50 of 3260 nM (HEK293T ATF4-FLuc reporter; ATF4 reporter gene, activator, luciferase reporter).
For O=C(O)/C=C/c1ccc(O)c(O)c1, “transepithelial electrical resistance” read 81.4 ± 11.2% (Caco-2/THP-1 co-culture; TEER; 0.25 µg/mL, together with: LPS 250 ng/mL; relative to: control).
CC(C)C[C@H](NC(=O)CNC(=O)c1cc(Cl)ccc1Cl)B(O)O has an EC50 of 533 nM (HEK293T ATF4-FLuc reporter; ATF4 reporter gene, activator, luciferase reporter).
Cc1c(C)c2c(c(C)c1O)CCC(C)(COc1ccc(CC3SC(=O)NC3=O)cc1)O2 (centres unmarked): “point of departure” 0.204 µM (HepG2; extracellular flux, measured: oxygen consumption rate; 6 h, representative mode).
COc1cc(CCC(=O)O)ccc1O gave an IL-1β level of 8.4 ± 0.7 fold change (coculture, Caco-2, THP-1; ELISA; 50 ng/mL, 8 h, together with: LPS, IFNγ, ATP; relative to: untreated control).
For O=c1[nH]nc(OCCCc2ccc(Cl)cc2)c(NCc2cccnc2)c1Br, “normalized enrichment score” read 0.963 (HEK-293T; RNA-seq GSEA, measured: HALLMARK_FATTY_ACID_METABOLISM; concentration not given; direction not given).
With O=C(O)Cc1ccc(O)cc1 the kynurenine level was 134 ± 12.2 % change (Caco-2/THP-1 co-culture; 0.05 µg/mL, together with: LPS 50 ng/mL).
The EC50 of C=C[C@@]1(C)CC(=O)[C@]2(O)[C@@]3(C)[C@@H](O)CCC(C)(C)[C@@H]3[C@H](O)[C@H](OC(C)=O)[C@@]2(C)O1 is reported as 217 nM (HEK293T ATF4-FLuc reporter; ATF4 reporter gene, activator, luciferase reporter).
Cc1nc(Nc2[nH]nc3c2CN(C(=O)N[C@H](CN(C)C)c2ccccc2)C3(C)C)c2sccc2n1 gave an inhibition of 16.1% (THP-1; pyroptotic LDH release; 2 µM, 40 min, together with: LPS then nigericin).
With C/C=C(/C)C(=O)O[C@H]1C(C)=C[C@]23C(=O)[C@@H](C=C(CO)[C@@H](O)[C@]12O)[C@H]1[C@@H](C[C@H]3C)C1(C)C the EC50 was 18.9 nM (HEK293T ATF4-FLuc reporter; ATF4 reporter gene, activator, luciferase reporter).
With CC(C)=CCC/C(C)=C/CC/C(C)=C/CSc1ccccc1C(=O)O the inhibition was 72% (THP-1; pyroptotic LDH release; 2 µM, 40 min, together with: LPS then nigericin).

Some of these lines once more:
COc1ccc(-n2nc(C(C)=O)s/c2=N\N=C(/C)c2ccc(NC(=O)c3ccc(C)cc3)cc2)cc1 has a viability of 3.06% (MCF7; 5 µM).
C[C@H](NC(=O)C(=O)Nc1ccccc1C(C)(C)C)C(=O)N[C@@H](CC(=O)O)C(=O)COc1c(F)c(F)cc(F)c1F gave an LDH release of 25.4% and 17.5% and 19.4% (THP-1 wild type, LPS-primed; inhibitor; 25 µM, 2 h, together with: nigericin 6.25 µM).
The mRNA level of CC(C)(C)NC(=O)c1cncn1C1CCN(c2ccc(-c3nnc(C(F)(F)F)o3)cn2)CC1 is reported as 2.62 (HDMEC; qPCR, measured: L-GILZ; concentration not given, unit not given; relative to: DMSO).
For CCn1cc(-c2cc(Cn3ccnc3)cc3c2CCN([C@H](c2cc(OC)ccn2)C2CC2)C3=O)c(C(F)(F)F)n1, the EC50 was over 30000 nM (HCC1438; cell growth; 120 h).
With CCOC(=O)CCC(=O)O[C@H]1[C@H](O[C@@H]2[C@@H](C)[C@H](O[C@H]3C[C@@](C)(OC)[C@@H](O)[C@H](C)O3)[C@@H](C)C(=O)O[C@H](CC)[C@@](C)(O)[C@H](O)[C@@H](C)C(=O)[C@H](C)C[C@@]2(C)O)O[C@H](C)C[C@@H]1N(C)C the inhibition was -4.39% (THP-1; pyroptotic LDH release; 2 µM, 40 min, together with: LPS then nigericin).
Cc1ncsc1CCO has an inhibition of -3.08% (THP-1; pyroptotic LDH release; 2 µM, 40 min, together with: LPS then nigericin).
